# Experimental data collected from several papers.
# Each line is one published result; not all experiments were run side by side. Several values in a cell are separate wells, animals, samples, runs or records. Numbers after ± are the reported error.
Compound,test,system,conditions,how to read,quantity,result
O=c1ccc2ncc(=O)n3c2n1C[C@H]3CN1CCC(NCc2cc3c(cn2)OCCC3)CC1,,"healthy human participants, urine","oral, dose not given, arithmetic mean, with: rifampicin",,amount excreted in urine (Ae),161 mg
COc1ccc(-c2c(-c3ccc(C#N)c(F)c3)nc(N3CCC(N)CC3)n(C)c2=O)cc1F,measured: small intestinal obstruction,human patients,"oral, 60 mg, dose expansion",,serious TEAE incidence,0%
Cn1c(-c2ccc(C(N)=O)cc2F)nnc1C(C)(C)Oc1c(F)cc(Cl)cc1F,,human,"oral, 1 mg, single ascending dose",,musculoskeletal disorder TEAE,0%
CC(C)[C@@H]1NC(=O)CNC(=O)[C@H](CC(N)=O)NC(=O)[C@H](CCCNC(=N)N)NC(=O)[C@H](Cc2ccc(O)cc2)NC(=O)[C@H](C(C)C)NC(=O)[C@@H](NC(=O)[C@@H](NC(=O)[C@H](CC(N)=O)NC(=O)[C@H](Cc2c[nH]c3ccccc23)NC(=O)[C@H](C)NC(=O)[C@H](Cc2ccccc2)NC(=O)CN)C(C)C)CSSC[C@@H](C(=O)N[C@@H](Cc2c[nH]cn2)C(=O)N[C@@H](CCCNC(=N)N)C(=O)N[C@@H](CCCNC(=N)N)C(=O)N[C@@H](C)C(=O)N[C@@H](CC(N)=O)C(N)=O)NC(=O)[C@H](C(C)C)NC(=O)[C@H](CCCNC(=N)N)NC1=O,"circular dichroism, measured: Random-coil",PBS,"80 µM, pH 7.4, with: LTA 1 µM",,secondary structure content,33.7%
C[C@@H]1[C@H](O)[C@@H](C)/C=C/C=C/CC/C=C/C=C/C=C/C=C/C(O[C@H]2O[C@H](C)[C@@H](O)[C@H](N)[C@@H]2O)CC2O[C@](O)(CC(O)C(O)CCC(O)CC(O)CC(O)CC(=O)O[C@H]1C)CC(O)C2C(=O)O (stereo partly drawn),,"mouse, bilateral renal I/R AKI","iv, 0.1 µmol/kg, within 24 h",,mortality,50%
CO[C@H]1C[C@@H]2CC[C@@H](C)[C@@](O)(O2)C(=O)C(=O)N2CCCC[C@H]2C(=O)O[C@H]([C@H](C)C[C@@H]2CC[C@@H](OC(=O)NCCOCCOCCOCCOCCOCCOCCOCCOCCC(=O)N3CCc4cc(Cn5nc(-c6ccc7oc(N)nc7c6)c6c(N)ncnc65)ccc4C3)[C@H](OC)C2)C[C@@H](O)[C@H](C)/C=C(\C)[C@@H](O)[C@@H](OC)C(=O)[C@H](C)C[C@H](C)/C=C/C=C/C=C/1C,"phase 1 dose escalation, measured: vomiting",advanced solid tumour patients,"intravenous, 10 mg weekly, grade ≥3",,TRAE incidence,0%
O=C(Nc1ccccc1)C1CCN(C(=O)Oc2cccnc2)CC1,,healthy women,"oral, 60 mg, 7 days",,adverse event Anxiety,0%
CCCCCCCC(=O)N[C@@H](CCCCN)C(=O)N[C@@H](CCCCN)C(=O)N[C@@H](C)C(=O)N[C@@H](CC(C)C)C(=O)N[C@@H](CCCCN)C(=O)N[C@@H](CC(C)C)C(=O)N[C@@H](C)C(=O)N[C@@H](CCCCN)C(=O)N[C@@H](CCCCN)C(=O)N1CCC[C@H]1C(=O)N[C@@H](CC(C)C)C(=O)N[C@@H](CCCCN)C(=O)N[C@@H](CC(C)C)C(=O)N[C@@H](CC(C)C)C(=O)N[C@@H](CCCCN)C(N)=O,,"female ICR CD-1 mice, whole blood","intravenous bolus, 3 mg/kg",,AUC(0-inf),276 ± 29 ng·h/mL
COc1cc2c(Oc3ccc4[nH]c(C)cc4c3F)ccnc2cc1OCC1(N)CC1,,paediatric recurrent refractory sarcoma,10 mg,,grade 1 or 2 Neutropenia,0%
C[C@]1(O)C[C@@](N)(c2ccc(-c3nc4n(c3-c3ccccc3)COc3ccncc3-4)cc2)C1,,"human, advanced or metastatic solid tumours","dose not given, intermittent dose escalation total",,patients with decreased appetite TEAE,42.9%
O.O.O.O.O.O.[Cl-].[Cl-].[Co+2],,"Crl:CD(SD) rat female, blood","oral, 0.74 mg Co/kg/day, 90 days",,red blood cell count,8.38 ×10E6/µl
COc1cccc(Oc2ccccc2NC(=O)CNC(=O)c2cccc3ccccc23)c1,,"esterase-deficient SCID mice, male","oral, 100 mg/kg/day, 14 days, toxicity study",,serum potassium,9.6 mmol/L and > 10 mmol/L and 8.8 mmol/L
CCc1ccc(CC/C=C/c2ccc3c(c2)C(=O)CC3)cc1,,"Sprague-Dawley rat, female, serum","oral, 30 mg/kg/day, 14 days",,total bilirubin,1.07 µM
Cc1ccc(F)c2cc(C(=O)N[C@@H]3CCC[C@H](N4CC[C@H](N(C)S(C)(=O)=O)C4)C3)[nH]c12,,"CD1 mouse, plasma","oral, 100 mg/kg, 7 h",,plasma concentration,1120 ng/mL
CC1(C)[C@H](C=C(Cl)Cl)[C@H]1C(=O)OCc1cccc(Oc2ccccc2)c1,measured: CYP2C8,"human, age 6 months, recombinant human CYP2C8",0.1 µM,,enzyme contribution to clearance,0.04%
Cn1cncc1-c1c(F)cncc1NC(=O)c1c(N)nn2cc(F)cnc12,,human patients,"oral, 80 mg once daily, 21 days",,dose-limiting toxicity anaemia,0%
COc1cccc2c1CCCC2CCCN1CCN(C2CCCCC2)CC1 (stereo not drawn),,"CD-1 mouse, male, lung","intraperitoneal, 30 mg/kg",,half-life,3.1 h
Cc1cc(C)c(CNC(=O)c2cc(Cl)c3c(c2C)O[C@@](C)([C@H]2CC[C@H](N(C)C)CC2)O3)c(=O)[nH]1,,"human, relapsed/refractory NHL","concentration not given, all TEAEs, grade 5",,Hyperglycaemia incidence,0%
CCN(CCO)CCCC(C)Nc1ccnc2cc(Cl)ccc12 (stereo not drawn),,newly diagnosed glioblastoma patients,"oral, 400 mg/dose, grade 1, with: radiotherapy plus temozolomide",,alkaline phosphatase increased patients,29%
C[C@]1(CO)Cc2ncn(-c3ccc(C#N)c(Cl)c3)c2C(=O)O1,,human,"concentration not given, European MRD and food-effect parts",,"disorders, nervous system, drug related",9.7%
CCN1CCN(Cc2ccc(Nc3ncc(F)c(-c4cc(F)c5nc6n(c5c4)[C@H](C)CCC6)n3)nc2)CC1,,advanced solid tumour patients,"dose not given, Phase Ia monotherapy",,"Hyperglycemia incidence, any grade",29.2%
O=C(O)CCCOc1ccc(F)cc1-c1cc(-c2ccccc2C(F)(F)F)n(-c2ccccc2)n1,,"Crl:CD(SD) rat, female, serum","intravenous, 25 µg/kg, 14 days post-dose",,total protein,5.9 ± 0.39 g/dL
Cn1ncc(-c2nc(N[C@H]3CC[C@H](N)CC3)ncc2Cl)c1CC1CC1,HPLC-MS/MS,"patients, plasma","oral, 1 mg, day 5",,half-life,17.7 h
CC(C)n1c(C2CCNCC2)nc2c([N+](=O)[O-])c(Br)c(Br)cc21,measured: Asthenia,AML patients,"dose not given, all doses",,grade ≥3 adverse events,14%
[Se],,"rat, plasma","single dose, sodium selenate",,Tmax,~1 h
CC[C@H](C)CCCCC(=O)N[C@@H](CCN)C(=O)N[C@H](C(=O)N[C@@H](CCN)C(=O)N[C@H]1CCNC(=O)[C@H]([C@@H](C)O)NC(=O)[C@H](CCN)NC(=O)[C@H](CCN)NC(=O)[C@H](CC(C)C)NC(=O)[C@@H](Cc2ccccc2)NC(=O)[C@H](CCN)NC1=O)[C@@H](C)O,,"critically ill patients, plasma","intravenous, 2.1 mg/kg/day, 6 h after fifth infusion start, median",,concentration at steady state,2700 ng/mL
COc1ccc([C@@H](O)c2cc(-c3ncnc4cc(N5CCOCC5)ccc34)c(F)cc2Cl)nn1,,"patients, advanced solid tumours","oral, 300 mg twice daily, treatment-emergent, with: avelumab",,dehydration incidence,4%
CN1CC[C@@H](c2c(O)cc(O)c3c(=O)cc(-c4ccc(C(F)(F)F)cc4Cl)oc23)[C@@H]1CO,measured: Nausea,B-cell malignancies,"oral, 200 mg, intermittent dosing",,patients with adverse event,100%
C[C@@H]1NC(=O)[C@H](CCCCNC(=O)CO/N=C/C(=O)NCCCC[C@@H]2NC(=O)[C@@H](Cc3ccccc3)NC(=O)[C@H](CC(=O)O)NC(=O)CNC(=O)[C@H](CCCNC(=N)N)NC2=O)NC(=O)CNC(=O)[C@@H]2CCCN2C(=O)[C@H](CCCCNC(=O)CO/N=C/C(=O)NCCCC[C@@H]2NC(=O)[C@@H](Cc3ccccc3)NC(=O)[C@H](CC(=O)O)NC(=O)CNC(=O)[C@H](CCCNC(=N)N)NC2=O)NC(=O)[C@H](CCCCNC(=O)[C@H](CCCCN)NC(=O)[C@H](Cc2ccccc2)NC(=O)CNC(=O)CN2CCCNCCNCCCNCC2)NC(=O)[C@H](CCCCNC(=O)CO/N=C/C(=O)NCCCC[C@@H]2NC(=O)[C@@H](Cc3ccccc3)NC(=O)[C@H](CC(=O)O)NC(=O)CNC(=O)[C@H](CCCNC(=N)N)NC2=O)NC(=O)CNC(=O)[C@@H]2CCCN2C(=O)[C@H](CCCCNC(=O)CO/N=C/C(=O)NCCCC[C@@H]2NC(=O)[C@@H](Cc3ccccc3)NC(=O)[C@H](CC(=O)O)NC(=O)CNC(=O)[C@H](CCCNC(=N)N)NC2=O)NC1=O [copper-64 labelled],,"normal mice, stomach","intravenous, 0.74 MBq, 3 h post-injection",,tissue uptake,1.91 ± 0.35 %ID/g
CN1CCN(S(=O)(=O)c2cc([N+](=O)[O-])ccc2N(CCOS(C)(=O)=O)CCOS(C)(=O)=O)CC1,,"NOD/SCID mouse, naive, blood","intraperitoneal, 6.3 mg/kg, week 4",,hemoglobin,158 g/L and 164 g/L and 160 g/L
NCCOCC(=O)N1CCCC(C(=O)NCc2nc(-c3ccc(-c4ccc(F)cc4)cc3)cs2)C1 (stereo not drawn),,"Sprague-Dawley rat, male","intravenous, 1 mg/kg, 24 h",relative to: dose,urinary excretion,3.2%
CC(C)CC(=O)OC[C@H]1O[C@@](C#N)(c2ccc3c(N)ncnn23)[C@H](O)[C@@H]1O,,monkey plasma,9 µM,,fraction unbound,0.317
COc1ccc(C[C@@H]2NC(=O)[C@H]([C@@H](C)O)NC(=O)[C@@H]3[C@@H]4CCN3C(=O)[C@@H]3Cc5cn(c6ccc(F)cc56)CCCCCCN(Cc5ccc(cc5)CCNC(=O)[C@]5(C)CCCN5C2=O)C(=O)CCC(=O)N[C@@H](C)C(=O)N[C@H](CNC(=O)CCCCC[N+](C)(C)C)C(=O)N[C@@H](Cc2cccc(c2)CNC(=O)CO4)C(=O)N3)cc1,measured: abdominal discomfort,human,dose not given,,participants with adverse event,2%
O=c1cc(-c2ccc(O)c(O)c2)oc2cc(O)cc(O)c12,,"Sprague-Dawley rat, male, lean, urine","oral, 100 mg/kg neohesperidin, 48 h",relative to: dose,urinary recovery,0.02 ± 0.01%
N#Cc1ccc(N2CCN(Cc3ccc(COc4cccc5c4CN([C@H]4CCC(=O)NC4=O)C5=O)cc3)CC2)c(F)c1,population PK model,human,"oral, dose not given, BLQ concentrations excluded",,peripheral volume,255 L
Nc1nc2cc(-c3ccc4ncc(C(=O)N5CCOCC5)n4c3)ccc2o1,measured: Anemia,advanced solid tumour patients,dose not given,,patients with adverse event,3%
CN(C(=O)n1cnc(-c2ccc[n+]([O-])c2)c1)C1CCCCC1,,"Wistar rat, hippocampus","oral, 10 mg/kg/day, 24 h, repeated 5 days",,concentration,9.4 ± 0.8 ng/g
Cc1cc(C)nc(Nc2ncc(C(=O)NCCc3c(C)[nH]c4ccccc34)cn2)c1,,rat liver microsomes,1 µM,,maximal hepatic bioavailability,17%
O[C@H]1CCCN[C@@H]1CCCn1cnc2c(Cl)c(Cl)ccc21,,"healthy humans, plasma","oral, 150 mg twice daily",,AUCtau geometric LS mean,1090 ng·h/mL
